# Published values collected from several papers.
# Each numbered part is a random draw from the data of one study; scales do not carry over between parts. Positions count from the first letter of the parent shown.

# Set 1
# Target: RNA binding protein fox-1 homolog 2, RRM domain, GST-SBP tag (RBFOX2, Homo sapiens, UniProt O43251-10, residues 100-194)
# Method: RNA Bind-n-Seq
# Form: RNA
# Medium: in vitro
# Concentration: 365 nM
# Notes: natural RNA segment, single round, ends assumed
# Baseline: no-protein control
# Reading: higher = stronger binding
# All sequences stand within: GGGAGUUCUACAGUCCGACGAUC … UGGAAUUCUCGGGUGCCAA
# Target sequence (chain): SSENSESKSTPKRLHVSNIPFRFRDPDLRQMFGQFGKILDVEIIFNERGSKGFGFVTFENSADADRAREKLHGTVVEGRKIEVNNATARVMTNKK
Sequence,RBNS enrichment (R)
UAGUUACAAUUACCUAGUUGGGGUUCUUCCUGAUGCAAGAAAUUUUUCACUGUUCGAGGCACAUGGUUAUUGGCUAUCCAUUUAGUUUUCACAGAGGCUGACCACCUUAC,0.757
CUUAAUUUUCUUAAAACUAUUUUUAAUGAUCCACUAAACAAAGCAGGGGAUCCUGAAGCUGAUAUAAAUAAGUCUAGCUCUAUAAUCCCCAAGUUCUAAAAGUUAUGGUU,0.397
UUCUUUCAUGAAGAACCCUGUUUAAAACUGGGGUCAUUAACUGUUCUAUUCUAACAAAGUAGUCUUGAGUUUCAUUUCUUAUGCCCCAUGGUAGUGGGAACCAGACCAAU,0.203
UUGGUGGGGCCAGGGUCCUCUCCCCUGCCCAGGAAUGUGCAAGGCCAGGGCAUGGGGGCAAAUAUGACCCAGUUUUGGGAACACCGACAAACCCAGCCCUGGCGCUGAGC,0.537
AUCCCGCAACCAGUCAGCGCACCAGUGGUCUCCCGGUGUGAUUUUUUUUUUUUUUAAUUUCAGUUGUUUGUAAUAAGUAGAAUACACUACUGUAAACAUACGACCUUUGU,1.12
GAGGAGCUCUGAGGGGCAGGGAGCCUGGCCAGGCCUGAGACACAGAGGCCCACUGCGAGGGGGACAGUGGCGGUGGGACUGACCUGCUGACAGUCACCCUCCCUCUGCUG,0.595
GUGAAUAUGUUUGUUGCUACUUACAAUCCCGACCUGUUAGUCCCAGUAGUUUUGUUUUAACAUGGUCUUUUUCAACUUUGUUUCCUGUUUAACUACAGAUGACUUCUGUU,0.333
UUCUGCCGGCAGAUAUGUUUCAAGACGCUGUAAACCUCUGAAGGAAUUUAUGCUUUCUCAAGAUGUUGAACAUGAGCGUCUCUUUGACCUCAUUCAGAAAAUGUUGGAGU,0.372

# Set 2
# Target: Interferon regulatory factor 5, full length, phosphomimetic (IRF5, Homo sapiens, UniProt Q13568-2, residues 1-514, K96S/S451D/S453D/S456D/S462D)
# Method: protein-binding microarray
# Form: double-stranded DNA, one strand shown
# Medium: in vitro
# Concentration: 250 nM
# Notes: 60-bp whole probe
# Together with: salmon DNA 0.4 mg/ml
# Baseline: random background probes
# Reading: higher = stronger binding
# All sequences stand within: GCCTAGCAC … GTCTTGATTCGCTTGACGCTGCTG
Sequence,log fluorescence [z-score]
GACGGTCTCGGTTTCGGGCCGTGCTAG,2.7
TTAGATTTCAGGCTGGATTAGTGCTAG,0.529
CCTTTTATGGTTTTTTTTTAGTGCTAG,0.687
ATAGATTTCGGGTTTCGATTAGTGCTA,8.67
GACGGTACCGGGACTGGGGACGTGCTA,-0.302
TTAGAACTGGTGTATCGATTAGTGCTA,2.66
GACGATTTCCTTTTCCTGACGTGCTAG,0.742
ACTCATTTTCATTTTGTGTCGTGCTAG,2.63
GACGGACTCGGTTTCGGGACGTGCTAG,2.69
CTTGCCCACTTCTGTGACAGGTGCTAG,-0.666
AGGAAGACATCAAAGAGAGCGTGCTAG,-0.0511
TTAGGTCACCTTCTCCTTTAGTGCTAG,-0.0348

# Set 3
# Target: CCNA1, cyclin fold, Cln2 fusion (human)
# Method: yeast growth competition, sequencing
# Medium: yeast
# Notes: weak parent motif
# Baseline: not given
# Reading: higher = stronger binding
# Parent: SCAPER docking peptide (human); SNARRSLNFGGST; partner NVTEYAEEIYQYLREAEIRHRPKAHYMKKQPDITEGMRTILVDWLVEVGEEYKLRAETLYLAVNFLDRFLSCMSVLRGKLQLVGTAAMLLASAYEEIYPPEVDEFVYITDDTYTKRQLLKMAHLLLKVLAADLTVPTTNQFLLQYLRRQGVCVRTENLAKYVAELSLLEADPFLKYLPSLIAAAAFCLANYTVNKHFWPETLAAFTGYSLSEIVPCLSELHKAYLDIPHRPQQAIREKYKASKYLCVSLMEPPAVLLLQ
Substitution,normalised enrichment score
SNARRSLMFGGST [N8M],0.268
SNARCSLNFGGST [R5C],0.0653
SPARRSLNFGGST [N2P],0.644
SNARRSLNFHGST [G10H],0.604
SNARRSLNQGGST [F9Q],0.337
NNARRSLNFGGST [S1N],0.574
SNARRSLNFGGQT [S12Q],0.427
RNARRSLNFGGST [S1R],0.74
SNARPSLNFGGST [R5P],0.294
SNARRSVNFGGST [L7V],0.152

# Other studies, line by line
Molecule,target,assay,system,setting,how to read,measurement,result
"PhoQ, residues 284 288 289 292 302 303 SIHMAM","PhoP, residues 12 14 15 18 19 LHHSG (Escherichia coli, UniProt P23836)","Sort-seq, item: YFP reporter",E. coli,"PhoQ-PhoP variant library, together with: 10 µM Mg2+","baseline: high Mg2+ state, higher = stronger signaling",fold induction,0.728
